Published values pooled from the literature.
Compare with care: the assays were run in different laboratories. ± gives the spread as reported. Values after ≈ are worked out from the molar mass of the structure shown.

Sequences of proteins named here, by UniProt entry; tags and fusion partners are left off.
UniProt Q9BWU1, whole entry: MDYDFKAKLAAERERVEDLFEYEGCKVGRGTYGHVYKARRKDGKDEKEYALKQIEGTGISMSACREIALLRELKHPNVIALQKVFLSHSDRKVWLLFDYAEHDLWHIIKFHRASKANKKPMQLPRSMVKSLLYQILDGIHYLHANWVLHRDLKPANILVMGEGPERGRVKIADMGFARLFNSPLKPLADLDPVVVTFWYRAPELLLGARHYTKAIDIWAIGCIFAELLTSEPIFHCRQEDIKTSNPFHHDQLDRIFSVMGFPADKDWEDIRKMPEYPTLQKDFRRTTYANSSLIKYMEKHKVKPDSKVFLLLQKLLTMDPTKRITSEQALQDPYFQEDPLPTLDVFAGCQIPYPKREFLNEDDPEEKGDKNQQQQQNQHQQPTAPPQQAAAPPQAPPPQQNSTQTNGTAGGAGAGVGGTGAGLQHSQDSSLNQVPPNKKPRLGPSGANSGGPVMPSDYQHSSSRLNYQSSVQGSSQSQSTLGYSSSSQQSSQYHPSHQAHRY
UniProt P43403, whole entry: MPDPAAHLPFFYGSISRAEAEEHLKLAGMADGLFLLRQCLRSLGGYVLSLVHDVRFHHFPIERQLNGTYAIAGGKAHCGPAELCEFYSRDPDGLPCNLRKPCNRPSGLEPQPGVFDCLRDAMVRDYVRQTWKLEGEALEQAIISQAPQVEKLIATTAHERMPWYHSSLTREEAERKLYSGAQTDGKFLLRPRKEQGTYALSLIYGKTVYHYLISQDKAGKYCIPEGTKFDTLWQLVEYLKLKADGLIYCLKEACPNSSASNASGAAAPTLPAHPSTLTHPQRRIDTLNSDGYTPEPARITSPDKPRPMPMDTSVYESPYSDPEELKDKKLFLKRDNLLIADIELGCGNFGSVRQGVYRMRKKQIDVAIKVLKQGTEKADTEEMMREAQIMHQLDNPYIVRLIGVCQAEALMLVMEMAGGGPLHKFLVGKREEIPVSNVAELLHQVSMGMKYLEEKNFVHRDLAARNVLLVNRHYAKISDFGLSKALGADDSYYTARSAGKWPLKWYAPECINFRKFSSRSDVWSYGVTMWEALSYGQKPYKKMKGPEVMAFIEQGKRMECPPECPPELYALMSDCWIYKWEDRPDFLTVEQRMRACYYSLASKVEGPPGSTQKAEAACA

CS(=O)(=O)NC(=O)CCc1cn(-c2ccc(Br)cc2)nc1-c1ccc(Cl)cc1
MIC (Mycobacterium tuberculosis; EthA C253R mutant): 8 µM

CC(C)Cc1cc(O)c(-c2cccc(Cl)c2)c(=O)[nH]1
MIC50 (Mycobacterium tuberculosis; H37Rv): 2.67 µM (≈ 0.742 µg/mL)

COCCOc1ccc2nc3ccc(=O)c(I)c-3oc2c1
MIC90 (Mycobacterium tuberculosis; mc2 6206 PA-824-resistant ddn mutant; 7 days): 60 µM (≈ 23.8 µg/mL)

CS(=O)(=O)NC(=O)NCc1cn(-c2ccc(Cl)cc2)nc1-c1ccncc1
MIC (Mycobacterium tuberculosis; MmpL3 G758A mutant): 1 µM

O=c1oc(-c2ccc([N+](=O)[O-])cc2)ns1
reduction in viable count (Mycobacterium tuberculosis; Erdman; 50 µM, 4 days, pH 7.4, nitric oxide non-replicating state, added: DETA-NO): 1.7 log CFU

CC1(C)CCC(Cc2cc(O)c(-c3ccccc3)c(=O)[nH]2)CC1
MIC99 (Mycobacterium tuberculosis; H37Rv): 0.08 µM (≈ 0.0249 µg/mL)

NNC(=O)c1ccncc1
MIC (Mycobacterium tuberculosis; EthA C253R mutant): 7.8 µM

Cn1cc([N+](=O)[O-])nc1COc1ccc2nc3ccc(=O)cc-3oc2c1
MIC90 (Mycobacterium tuberculosis; mc2 6206 clofazimine-resistant fbiC mutant; 7 days): > 256 µM

CCc1nc(N)nc(N)c1C#C[C@@H](C)c1cc(OC)cc(-c2ccc(C(=O)O)cc2)c1
MIC (Mycobacterium tuberculosis; broth microdilution; Erdman ATCC 35801): 0.03 µg/mL

CCOc1ccc2nc3ccc(=O)cc-3oc2c1
MIC90 (Mycobacterium tuberculosis; mc2 6206 clofazimine-resistant fbiC mutant; 7 days): 18 µM (≈ 4.34 µg/mL)

CCN1CCN(Cc2ccc(NC(=O)c3ccc(C)c(/C=C/c4cnc5[nH]ccc5c4OC)c3)cc2C(F)(F)F)CC1
log2 fold change (CDK19 (Homo sapiens, UniProt Q9BWU1); inhibitor, cell-based kinome screen, item: CDC2L6; human cells; 5 µM; reference: vehicle): -0.07

Cc1cccc(-c2nsc(=O)o2)c1
reduction in viable count (Mycobacterium tuberculosis; Erdman; 50 µM, 4 days, pH 7.4, nitric oxide non-replicating state, added: DETA-NO): 1.7 log CFU

O=c1ccc2nc3ccc(OCc4ccccc4)cc3oc-2c1
MIC90 (Mycobacterium tuberculosis; mc2 6206 bedaquiline-resistant MmpL5 regulator mutant; 7 days): > 512 µM

CC#C/C(=N\OC[C@H]1COCCN1)c1ccc2ncnc(Nc3ccc(OCc4cccc(F)c4)c(Cl)c3)c2c1
inhibition (ZAP70 (Homo sapiens, UniProt P43403); kinase activity; 10 µM): 36.8%

CCc1nc(N)nc(N)c1C#CCc1cc(OC)cc(-c2ccc(C(=O)O)cc2)c1
MIC (Mycobacterium tuberculosis; PAS-resistant folC E153G): 4 µg/mL

O=c1oc(-c2ccccn2)ns1
reduction in viable count (Mycobacterium tuberculosis; Erdman; 50 µM, 4 days, pH 7.4, nitric oxide non-replicating state, added: DETA-NO): 1.8 log CFU

O=c1[nH]c(CC2CCCCC2)cc(O)c1-c1ccccc1
MIC50 (Mycobacterium tuberculosis; H37Rv): 0.16 µM (≈ 0.0453 µg/mL)

COCCOc1ccc2nc3ccc(=O)cc-3oc2c1
MIC90 (Mycobacterium tuberculosis; mc2 6206 bedaquiline-resistant MmpL5 regulator mutant; 7 days): 51 µM (≈ 13.8 µg/mL)

CS(=O)(=O)NC(=O)NCc1cc(-c2ccc(Br)cc2)oc1-c1ccncc1
MIC (Mycobacterium tuberculosis; MmpL3 G758A mutant): 0.5 µM

O=c1ccc2nc3ccc(OCCO)cc3oc-2c1
MIC90 (Mycobacterium tuberculosis; mc2 6206 bedaquiline-resistant MmpL5 regulator mutant; 7 days): > 256 µM

COc1c(C)c(-c2ccc(Cc3ccccc3)cc2)nc2ccccc12
IC50 (Mycobacterium tuberculosis; growth, MABA; H37Rv; aerobic): 2890 ± 110 nM

A few entries again:
CC1(C)CCC(Cc2cc(O)c(-c3ccccc3)c(=O)[nH]2)CC1
MIC99 (Mycobacterium tuberculosis; H37Rv): 0.08 µM (≈ 0.0249 µg/mL)
